Measurements pooled from the literature.
Protocols differ between the studies behind these lines.
Cell line: A549/ATCC

Structure (SMILES)	test	conditions	endpoint	result
CCc1n(Cc2ccc3ccccc3n2)cc[n+]1Cc1ccc2ccccc2c1	NCI60 five-dose	–	TGI	14.1 µM
CSc1nc(-c2ccc(Cl)cc2)c2c(NC(=O)c3ccccc3)nnc-2[nH]1	NCI60 SRB	10 µM	growth percent	104%
CCCc1n(Cc2ccc3ccccc3n2)cc[n+]1Cc1ccc2ccccc2n1	NCI60 five-dose	–	TGI	> 100 µM
Cc1cc(C)n(C(=S)[S][Au][PH](CCCCCC[PH]([Au][S]C(=S)n2nc(C)cc2C)(c2ccccc2)c2ccccc2)(c2ccccc2)c2ccccc2)n1	cell growth, NCI-60 screen	non-small cell lung cancer	GI50	0.351 µM
Cc1cc(-c2ccccc2)n(-c2nc(-c3ccc(Cl)cc3)c3c(NC(=O)c4ccccc4)nnc-3[nH]2)n1	NCI60 SRB	10 µM	growth percent	93.1%
S=C([S][Au-][P+](CCCCCC[P+]([Au-][S]C(=S)n1cccn1)(c1ccccc1)c1ccccc1)(c1ccccc1)c1ccccc1)n1cccn1	cell growth, NCI-60 screen	non-small cell lung cancer	log TGI	> -4 log10 M
Cn1cncc1C1=CN(c2ncnc3[nH]cnc23)CCS1	–	lung cancer cell line	TGI	> 200 µM
COc1cc(-c2ccc(-c3ccc(C(=N)N)nc3)s2)cc(OC)c1OC	NCI five-dose screen	–	GI50	2.06 µM
CCCCc1n(Cc2ccc3ccccc3n2)cc[n+]1Cc1ccc2ccccc2n1	NCI60 five-dose	–	TGI	18.5 µM
O=C(Nc1nnc2n3c(=S)[nH][nH]c3nc(-c3ccc(Cl)cc3)c1-2)c1ccccc1	NCI60 SRB	10 µM	growth percent	96.5%
CCc1n(Cc2ccc3ccccc3n2)cc[n+]1Cc1ccc2ccccc2n1	NCI60 five-dose	–	TGI	> 100 µM
COC(=O)/C=C1\C(=O)C=C2C3CC4CC(CCC4(C)N21)C3(C)NC(C)=O (stereo not drawn)	cell growth	NCI screen	IC50	33.1 µM

Excerpt of the above:
Structure (SMILES)	test	conditions	endpoint	result
CCc1n(Cc2ccc3ccccc3n2)cc[n+]1Cc1ccc2ccccc2n1	NCI60 five-dose	–	TGI	> 100 µM
CSc1nc(-c2ccc(Cl)cc2)c2c(NC(=O)c3ccccc3)nnc-2[nH]1	NCI60 SRB	10 µM	growth percent	104%
